# Measured values gathered from unrelated publications.
# Numbered parts are unrelated; each lists some results of a single study. Substitutions count along the parent as printed.

# Study 1
# Target: CCND3, cyclin fold, Cln2 fusion (human)
# Method: yeast growth competition, sequencing
# Medium: yeast
# Setting: weak parent motif
# Baseline: not given
# Direction: higher = stronger binding
# Starting sequence: SLBP docking peptide (human); ARYKRKLLINDFG
Change,normalised enrichment score
AQYKRKLLINDFG [R2Q],0.254
ARYKRKELINDFG [L7E],0.0301
ARYKRKLLDNDFG [I9D],0.0699
ARYKTKLLINDFG [R5T],0.107
ARYKRYLLINDFG [K6Y],0.157
ARYKRKLLINDRG [F12R],0.219
ARYKRKLLINDFY [G13Y],0.172
ARYKRKLLINDFS [G13S],0.0574
ARYKRKLAINDFG [L8A],0.193
ARYKYKLLINDFG [R5Y],0.158
ARYKRKLLINKFG [D11K],0.122
ARYKRKRLINDFG [L7R],0.133
ARYKRKLLINDIG [F12I],0.202
ARYKRCLLINDFG [K6C],0.277
ALYKRKLLINDFG [R2L],0.153
ARGKRKLLINDFG [Y3G],0.129
ARYKRGLLINDFG [K6G],0.164

# Study 2
# Target: CREB3, bZIP domain (human)
# Method: DHFR protein complementation
# Medium: yeast
# Setting: single substitutions, most at no-binding floor
# Baseline: wild-type JUN-FOS pair
# Direction: higher = stronger binding
# Starting sequence: JUN, bZIP domain (human); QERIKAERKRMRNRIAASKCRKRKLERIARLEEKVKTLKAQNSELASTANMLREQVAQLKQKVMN; partner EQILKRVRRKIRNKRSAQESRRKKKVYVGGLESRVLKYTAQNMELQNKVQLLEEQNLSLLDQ
Change,binding fitness [natural log]
E33N,-1.34
T48E,-1.38
L59W,-1.37
Q41H,-1.45
A57T,-1.4
K39R,-1.27
Q41A,-1.35
T37K,-1.4
M51L,-1.47
A40H,-1.57
L38V,-1.44
M51Y,-1.42
L38D,-1.55
K34W,-1.49
E44W,-1.41
A29R,-1.35
T48I,-1.46
R53P,-1.51
Q41L,-1.31
R30A,-1.29
R53L,-1.58
L59C,-1.5
Q55R,-1.48
T37Q,-1.36
S43T,-1.4

# Study 3
# Target: Interferon regulatory factor 5, full length, phosphomimetic (IRF5, Homo sapiens, UniProt Q13568-2, residues 1-514, K96S/S451D/S453D/S456D/S462D)
# Method: protein-binding microarray
# Molecule type: double-stranded DNA, one strand shown
# Medium: in vitro
# Concentration: 250 nM
# Setting: 60-bp whole probe
# Together with: salmon DNA 0.4 mg/ml
# Baseline: random background probes
# Direction: higher = stronger binding
# All sequences stand within: GCCTAGCAC … GTCTTGATTCGCTTGACGCTGCTG
Strand,log fluorescence
GAAGGTATCCTACTGCTGACGTGCTAG,-0.265 z-score
GACGGTATCCTACTGCAGACGTGCTAG,-0.0575 z-score
TTAGGTTTCGGACCGGGTTAGTGCTAG,4.45 z-score
TTAGATTTCGGGTATCGGTTAGTGCTA,7.78 z-score
TCAGAAATCTCTTTCCTACTGTGCTAG,0.692 z-score
CTAGATATCAGTCTCGATTAGTGCTAG,1.41 z-score
TTAGGTTTCCTTTCCCTTTCGTGCTAG,2.68 z-score
GACGGTATCCTTTCCCTGACGTGCTAG,0.502 z-score
TGCTTCCTCTTTTTTGTTCCGTGCTAG,1.07 z-score
GACGGACAGGACTTTCGGGACGTGCTA,4.74 z-score
GACGGTTTCGGGACTGGGGGCGTGCTA,5.54 z-score
TTAGGTTTCCTTATCCATTAGTGCTAG,1.23 z-score
TCATTTGTCATCTATAATACTGTGCTA,0.987 z-score
TTAGGAGTGCTTCTCCTTTAGTGCTAG,-0.632 z-score
GACGATATCAGACTGAAGACGTGCTAG,0.37 z-score
GGCGGTCTCCTTTTCCTGACGTGCTAG,-0.421 z-score

# Study 4
# Target: Fragile X messenger ribonucleoprotein 1, C-terminal low-complexity region (Fmr1, Mus musculus, UniProt P35922)
# Method: RNA Bind-n-Seq
# Molecule type: RNA
# Medium: in vitro
# Concentration: 200 nM
# Setting: whole 134-nt RNA, ends assumed
# Together with: 150 mM KCl
# Baseline: input library
# Direction: higher = stronger binding
# All sequences stand within: GGGAGUUCUACAGUCCGACGAUC … UGGAAUUCUCGGGUGUCAAGG
Strand,log2 enrichment
GUCCUGUGCUACACAUCGUAUGUACCGAAUCGGGGUUUUUGGGGUUUUUGGGGUGGGGAAAGUAUUAUGUUACGCCGUUCGGAUCUGCAC,0.911
GUCCUGUGCUACACAUCGUAUGUACCGAAUCGGGCCCCCGGGGCCCCCGGGGCCCCCGGAAAGUAUUAUGUUACGCCGUUCGGAUCUGCA,0.444
AGUCCUGUGCUACACAUCGUAUGUACCGAAUCGGGGUGGGGUGGGGUUUUUUUGGGGAAAGUAUUAUGUUACGCCGUUCGGAUCUGCACU,1.08
UGGGAGGUGGAUUUUGUUUAUUUUUUUAGCUCAUUUGCAGGGGUGGGAAUUUUUUUUUAAUAUGUGUCAUGAAUAAAGUUGUUUUUGAAA,0.354
UCCUGUGCUACACAUCGUAUGUACCGAAUCAAAUUUAAACCCCCCCAAACCCCCCCAAAAAAGUAUUAUGUUACGCCGUUCGGAUCUGCA,0.196
UGUGGAGGAGACGGCCGACUCGACGCUGUGCCACAUCCUGAACCUGUACCGGCGGGCCACCUGGCUGCACCAGGCGCUGCGGGAGGGCAC,-0.917
GCAGGAAGUAAAAACAAAUGGAAAUGCUUCGGAUAGUGGCAGGGGUGGGGGUAGCUAAGGAAAGGGUGGGAUGGGAGUGGGUAAAGAGUU,0.215
UCAAGUCCUGUGCUACACAUCGUAUGUACCGAAUCGGAAAGGGGAAAGGAAAGGGAAAGUAUUAUGUUACGCCGUUCGGAUCUGCACUUC,-0.689
GUCCUGUGCUACACAUCGUAUGUACCGAAUCGGCCCCCCGGCCCCCCGGCCCCCCGGGGAAAGUAUUAUGUUACGCCGUUCGGAUCUGCA,0.0558
UGGGAGGUGGAUUUUGUUUAUUUUUUUAGCUCAUUUCCAGCGGUGGGAAUUUUUUUUUAAUAUGUGUCAUGAAUAAAGUUGUUUUUGAAA,0.226
CCUGUGCUACACAUCGUAUGUACCGAAUCGGGGUUUUUUUGGUUUUUUUGGGUUUUUUUGGAAAGUAUUAUGUUACGCCGUUCGGAUCUG,-0.68
CAAGUCCUGUGCUACACAUCGUAUGUACCGAAUCGGGGAAAGGAAAGGGAAAGGGAAAGUAUUAUGUUACGCCGUUCGGAUCUGCACUUC,0.0487
UAACUUUAGAGGAGGAUCUGAUGGAUAUGGCAGUGGACGUGGAUUUGGGGAUGGCUAUAAUGGGUAUGGAGGAGGAUCUGGAGGUGGCAA,0.229
GUCCUGUGCUACACAUCGUAUGUACCGAAUCGGGAAAAAAGGAAAAAAGGAAAAAAGGAAAGUAUUAUGUUACGCCGUUCGGAUCUGCAC,-0.5

# Study 5
# Target: RNA binding protein fox-1 homolog 2, RRM domain, GST-SBP tag (RBFOX2, Homo sapiens, UniProt O43251-10, residues 100-194)
# Method: RNA Bind-n-Seq
# Molecule type: RNA
# Medium: in vitro
# Concentration: 365 nM
# Setting: natural RNA segment, single round, ends assumed
# Baseline: no-protein control
# Direction: higher = stronger binding
# All sequences stand within: GGGAGUUCUACAGUCCGACGAUC … UGGAAUUCUCGGGUGCCAA
# Residues (chain): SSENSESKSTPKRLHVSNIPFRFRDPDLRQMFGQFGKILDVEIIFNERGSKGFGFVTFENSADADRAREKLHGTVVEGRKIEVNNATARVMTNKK
Strand,RBNS enrichment (R)
CAAGAAGUUGAAACAGUUAGUUAUGUAGUUGAAGCAAUUUGUGUGCAAAGCCUACAUCUAAACACUUGAGUGAAUAAUCAUUAACUGCUCAGUACCAGACGUGGCAAAUC,0.405
UCACUGUAACCUGAUUCAUCCUGGGAUGUAAACCAUUCGAAGUCAGCUAAUUGGACUUUUAUGGCUCUAUCUUUUCCUUCAGUGAAGAACCCUAUUUAAAACUGGGUCAU,0.291
AGAGACAGGGUUUCACCAUGUUAGCCGGGAUGGUCUUGAUCUCCUGACCUCAUGAUCCACCCACCUCAGCCUCCCAAAGUGUUGGGAUUACAGGCGUGAGCCACUGCGCC,0.276
UGCCUACCCACUCCAGGACUCUCUCCCUCCCCCCAACCCCAUCCCCAUCUCUGAGCUAUGGGGCAAUCACUCCCAUUUUACCUUUGCCAUCCUUGACCUUCGUUCACCCC,0.972
GUACCUGGUUUUAGCCACAGCCACCUCCUUGUAUGUUACCUUUCAGCUCUGGCCAAGAGUGGGACAGGGUUUUAACCACAAAUAGGAGCAGCAUGCAAUUCCUAGUGACU,4.06
AAAGAUGCUUUAAAUUAAAUUUGGGUAAUAUUAAACCACAUGUUUACAAUACCAAAAUCCACAAAAGCUACUUUAUUUUCAAAUAUGACAGAUAGUUUCCAGAGUACGCC,0.39
AACUAGGGAGAGGAAAAAGGAGCUCAUCUCUCAGCCCCUUCUUCAUAGCAUUUACAGCCCCGGGCUGUACCCAGACCAGGCUACCUGGGCAGCACAAAGGGCAAGGAGAG,0.401
AGCCUCGACUGCCACAGAGAAGCAUACUCUUGCAUCUGGGUUUGUUUACAGCGAUUCCGUGGACCGGGGGUAUUUUGAUCAGGGGUGGUUUUGGUCUGGGAGGGUUUUGU,9.4
GUUUUGCCAUGAACUGUGGCCCCAGUGUAUAGUGUUUCAGUGGGGGAGAAGCUGAAAGACCAAGACUCUUCCCAAGUUAGCUUGUCUCCUCUCCUGUCACCCUAAGAGCC,1.04
GAGUACAGAUGGGGAGGAAGGUUCCAGACUCUCCUCUCACUUUUUUUUUCCUCUCCUAUUCCAACACUUCCUGCUGGGAGAUCUCCACGCCUAUUUUCACCAUUCUCAGG,0.361
CAUUCGAAGAGAUCAGGCGCGGUGGCUCACGCCUGUAAUCCCAGCAUUUUGGGAGGCUGAGGCAGGUGGAUCACUUGAGAUCAAGAGCUUAAAACCAGCCCAGGCAACAU,0.735
GCCCUUGAUAAAUAUCAACUUUAUUGAAUUGUACCUUUUAUUAAAAAGGAAAUACUUCAAAACCUUGUUCAUUACCUAGACCAGUUAUUAUCUGUCUGGACAUAGUUGUG,0.331

# Some of these lines once more (study 2):
Change,binding fitness [natural log]
K34W,-1.49
E44W,-1.41
A29R,-1.35
T48I,-1.46
R53P,-1.51
Q41L,-1.31
R30A,-1.29
